Experimental data pooled from the literature.
Each numbered part is a random draw from the data of one study; scales do not carry over between parts.
Chain of UniProt Q15139 (whole entry, looked up): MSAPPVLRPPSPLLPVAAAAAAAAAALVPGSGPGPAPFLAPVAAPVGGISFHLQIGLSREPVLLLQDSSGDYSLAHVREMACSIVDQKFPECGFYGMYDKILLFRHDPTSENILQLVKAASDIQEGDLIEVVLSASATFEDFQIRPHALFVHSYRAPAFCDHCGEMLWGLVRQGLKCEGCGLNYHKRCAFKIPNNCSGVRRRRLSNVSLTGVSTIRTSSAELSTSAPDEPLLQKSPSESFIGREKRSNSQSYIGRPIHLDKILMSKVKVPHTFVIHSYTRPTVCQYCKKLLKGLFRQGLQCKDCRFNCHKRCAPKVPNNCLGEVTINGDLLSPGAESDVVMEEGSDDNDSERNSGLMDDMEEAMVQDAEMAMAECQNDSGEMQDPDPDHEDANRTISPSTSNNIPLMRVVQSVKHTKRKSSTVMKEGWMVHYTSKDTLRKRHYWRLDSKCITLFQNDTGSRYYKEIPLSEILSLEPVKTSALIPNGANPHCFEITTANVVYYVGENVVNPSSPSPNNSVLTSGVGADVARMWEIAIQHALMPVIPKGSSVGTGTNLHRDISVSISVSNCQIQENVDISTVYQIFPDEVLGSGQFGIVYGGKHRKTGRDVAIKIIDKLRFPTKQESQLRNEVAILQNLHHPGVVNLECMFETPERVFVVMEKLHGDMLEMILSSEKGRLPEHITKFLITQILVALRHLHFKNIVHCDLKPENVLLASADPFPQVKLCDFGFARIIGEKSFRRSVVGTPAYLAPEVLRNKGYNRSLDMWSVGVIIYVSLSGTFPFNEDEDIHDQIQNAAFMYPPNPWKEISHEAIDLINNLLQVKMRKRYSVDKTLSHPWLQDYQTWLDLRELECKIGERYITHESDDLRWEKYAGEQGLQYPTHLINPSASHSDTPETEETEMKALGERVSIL
Chain of UniProt P07949 (whole entry, unmodified, looked up): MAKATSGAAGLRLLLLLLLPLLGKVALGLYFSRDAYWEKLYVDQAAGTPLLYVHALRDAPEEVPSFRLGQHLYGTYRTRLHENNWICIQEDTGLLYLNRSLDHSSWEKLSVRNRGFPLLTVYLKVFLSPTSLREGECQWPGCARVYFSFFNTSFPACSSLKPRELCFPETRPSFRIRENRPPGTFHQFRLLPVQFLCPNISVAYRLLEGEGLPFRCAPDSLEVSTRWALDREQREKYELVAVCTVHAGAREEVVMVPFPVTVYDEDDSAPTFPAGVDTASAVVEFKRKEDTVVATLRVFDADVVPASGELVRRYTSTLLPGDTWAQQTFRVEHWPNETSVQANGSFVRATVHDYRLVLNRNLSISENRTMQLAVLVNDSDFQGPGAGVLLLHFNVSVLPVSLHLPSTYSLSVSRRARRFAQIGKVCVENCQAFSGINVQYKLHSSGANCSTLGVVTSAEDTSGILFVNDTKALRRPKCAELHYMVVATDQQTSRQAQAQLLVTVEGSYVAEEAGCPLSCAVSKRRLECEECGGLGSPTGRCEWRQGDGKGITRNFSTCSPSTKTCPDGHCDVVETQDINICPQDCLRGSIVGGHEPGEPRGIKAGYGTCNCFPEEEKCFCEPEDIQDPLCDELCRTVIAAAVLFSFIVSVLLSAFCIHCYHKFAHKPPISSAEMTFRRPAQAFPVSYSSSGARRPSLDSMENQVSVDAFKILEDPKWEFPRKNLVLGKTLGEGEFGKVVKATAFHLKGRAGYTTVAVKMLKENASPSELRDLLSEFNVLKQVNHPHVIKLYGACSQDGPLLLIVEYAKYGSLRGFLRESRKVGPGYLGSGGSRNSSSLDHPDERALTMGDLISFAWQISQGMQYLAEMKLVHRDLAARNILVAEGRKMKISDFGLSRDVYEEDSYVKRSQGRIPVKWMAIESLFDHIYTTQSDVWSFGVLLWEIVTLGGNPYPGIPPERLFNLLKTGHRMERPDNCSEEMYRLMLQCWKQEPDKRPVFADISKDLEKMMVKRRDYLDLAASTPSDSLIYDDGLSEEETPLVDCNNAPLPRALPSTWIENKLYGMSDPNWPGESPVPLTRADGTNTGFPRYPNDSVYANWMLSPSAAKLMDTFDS
Chain of UniProt Q9NY57 (whole entry, looked up): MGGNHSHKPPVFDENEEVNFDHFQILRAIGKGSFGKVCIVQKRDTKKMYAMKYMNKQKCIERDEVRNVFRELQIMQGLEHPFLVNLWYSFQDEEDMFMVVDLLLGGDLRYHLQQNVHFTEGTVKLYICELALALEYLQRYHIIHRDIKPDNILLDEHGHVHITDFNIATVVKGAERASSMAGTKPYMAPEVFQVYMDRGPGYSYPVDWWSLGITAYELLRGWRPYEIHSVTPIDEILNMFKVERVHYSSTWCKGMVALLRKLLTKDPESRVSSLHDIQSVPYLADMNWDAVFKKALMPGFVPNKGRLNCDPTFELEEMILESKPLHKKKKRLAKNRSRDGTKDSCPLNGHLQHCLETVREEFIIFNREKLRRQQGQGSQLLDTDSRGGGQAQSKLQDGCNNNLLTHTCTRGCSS
Chain of UniProt Q9UEE5 (whole entry, looked up): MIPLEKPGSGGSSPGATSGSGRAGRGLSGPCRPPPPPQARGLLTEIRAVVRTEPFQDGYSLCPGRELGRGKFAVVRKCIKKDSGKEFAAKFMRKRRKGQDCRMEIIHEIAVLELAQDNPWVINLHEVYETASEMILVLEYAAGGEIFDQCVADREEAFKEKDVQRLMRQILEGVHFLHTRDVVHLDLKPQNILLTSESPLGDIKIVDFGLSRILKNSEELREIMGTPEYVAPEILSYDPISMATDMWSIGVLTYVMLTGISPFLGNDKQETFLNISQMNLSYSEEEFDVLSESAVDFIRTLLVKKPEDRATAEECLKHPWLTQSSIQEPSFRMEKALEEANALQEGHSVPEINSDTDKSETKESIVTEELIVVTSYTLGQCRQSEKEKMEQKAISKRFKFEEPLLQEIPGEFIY
Chain of UniProt Q8NE63 (whole entry, looked up): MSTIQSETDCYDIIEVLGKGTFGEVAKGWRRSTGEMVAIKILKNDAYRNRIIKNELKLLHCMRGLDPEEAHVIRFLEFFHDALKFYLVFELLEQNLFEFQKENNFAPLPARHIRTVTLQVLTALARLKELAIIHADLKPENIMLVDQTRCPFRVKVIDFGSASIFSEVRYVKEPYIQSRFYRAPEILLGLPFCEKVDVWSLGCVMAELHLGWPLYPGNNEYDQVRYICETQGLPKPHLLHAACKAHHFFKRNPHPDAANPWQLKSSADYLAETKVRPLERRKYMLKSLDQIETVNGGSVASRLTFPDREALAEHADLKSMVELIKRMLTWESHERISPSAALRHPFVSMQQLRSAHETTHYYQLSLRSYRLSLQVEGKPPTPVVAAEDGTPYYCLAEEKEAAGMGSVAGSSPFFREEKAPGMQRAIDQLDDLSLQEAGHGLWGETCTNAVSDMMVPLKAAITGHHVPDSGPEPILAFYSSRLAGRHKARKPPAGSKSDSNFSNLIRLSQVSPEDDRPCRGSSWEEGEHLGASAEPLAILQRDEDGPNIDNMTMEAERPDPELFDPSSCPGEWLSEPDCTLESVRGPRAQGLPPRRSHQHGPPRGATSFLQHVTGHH
Chain of UniProt Q15759 (whole entry, looked up): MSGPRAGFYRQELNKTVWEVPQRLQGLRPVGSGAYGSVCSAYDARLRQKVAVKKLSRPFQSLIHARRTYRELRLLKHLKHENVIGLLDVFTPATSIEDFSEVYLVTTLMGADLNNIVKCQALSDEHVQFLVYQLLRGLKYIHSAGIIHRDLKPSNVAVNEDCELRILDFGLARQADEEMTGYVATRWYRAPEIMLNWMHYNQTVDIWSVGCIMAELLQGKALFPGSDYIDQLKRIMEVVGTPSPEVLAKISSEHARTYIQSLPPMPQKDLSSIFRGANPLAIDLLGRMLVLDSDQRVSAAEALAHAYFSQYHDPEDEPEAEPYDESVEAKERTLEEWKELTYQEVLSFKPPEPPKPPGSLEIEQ

Set 1
SMILES: C[S+]([O-])c1ccc(-c2nc(-c3ccncc3)c(-c3ccc(F)cc3)[nH]2)cc1 (stereo not shown)
Observed: enzyme activity
Action: inhibitor
Tested at: 0.5 µM
Relative to: control
target	remaining activity [%]
Serine/threonine-protein kinase 16 (STK16, Homo sapiens, UniProt O75716)	111
Homeodomain-interacting protein kinase 4 (HIPK4, Homo sapiens, UniProt Q8NE63)	93.5
Serine/threonine-protein kinase 17A (STK17A, Homo sapiens, UniProt Q9UEE5)	98.9
Testis-specific serine/threonine-protein kinase 2 (TSSK2, Homo sapiens, UniProt Q96PF2)	95.7
Serine/threonine-protein kinase WNK3 (WNK3, Homo sapiens, UniProt Q9BYP7)	99

Set 2
Organism: Sarcocystis neurona
Observed: parasite activity
Tested at: concentration not given
SMILES	activity class
Cc1sc(N)c(C(=O)c2cccc(C(F)(F)F)c2)c1C	inactive
COc1ccccc1N1CCN(CCCNc2cc(=O)n(C)c(=O)n2C)CC1.Cl	inactive
Cc1onc(-c2ccccc2)c1C(=O)N[C@@H]1C(=O)N2[C@@H]1SC(C)(C)[C@@H]2C(=O)O	inactive
CC[C@@H](CO)NCCN[C@@H](CC)CO	inactive
CCOC(=O)c1ccc(OC(=O)CCCCCN=C(N)N)cc1.CS(=O)(=O)O	inactive
O=c1ncc(F)c[nH]1	inactive
CC(C)NCC(O)c1ccc(O)c(O)c1.Cl (stereo not shown)	inactive
O=C(O)CCCc1ccccc1	inactive

Set 3
Compound: CCCOc1ccc([C@H]2[C@H](C(=O)O)[C@@H](c3ccc4c(c3)OCO4)CN2CC(=O)Nc2c(CC)cccc2CC)cc1
Observed: cell-free assay
Technique: competition with immobilised ligand
Tested at: 1 µM
target	remaining binding
Proto-oncogene tyrosine-protein kinase receptor Ret (RET, Homo sapiens, UniProt P07949, V804M)	100%
Receptor-type tyrosine-protein kinase FLT3 (FLT3, Homo sapiens, UniProt P36888)	87%
Epidermal growth factor receptor (EGFR, Homo sapiens, UniProt P00533, G719C)	95%
NUAK family SNF1-like kinase 1 (NUAK1, Homo sapiens, UniProt O60285)	83%
Serine/threonine-protein kinase MARK2 (MARK2, Homo sapiens, UniProt Q7KZI7)	88%
Mitogen-activated protein kinase 11 (MAPK11, Homo sapiens, UniProt Q15759)	95%
Bone morphogenetic protein receptor type-2 (BMPR2, Homo sapiens, UniProt Q13873)	53%
Serine/threonine-protein kinase 32B (STK32B, Homo sapiens, UniProt Q9NY57)	100%
Mitogen-activated protein kinase kinase kinase 4 (MAP3K4, Homo sapiens, UniProt Q9Y6R4)	88%
Serine/threonine-protein kinase D1 (PRKD1, Homo sapiens, UniProt Q15139)	94%
Mitogen-activated protein kinase kinase kinase kinase 2 (MAP4K2, Homo sapiens, UniProt Q12851)	79%
Serine/threonine-protein kinase NIM1 (NIM1K, Homo sapiens, UniProt Q8IY84)	78%
STE20/SPS1-related proline-alanine-rich protein kinase (STK39, Homo sapiens, UniProt Q9UEW8)	58%
Serine/threonine-protein kinase Sgk2 (SGK2, Homo sapiens, UniProt Q9HBY8)	54%

Further values, each from its own experiment
Structure (SMILES)	cell line	tested at	time	quantity	value
O=C(OC[C@H]1O[C@@H](OC(=O)c2cc(O)c(O)c(OC(=O)c3cc(O)c(O)c(O)c3)c2)[C@H](OC(=O)c2cc(O)c(O)c(OC(=O)c3cc(O)c(O)c(O)c3)c2)[C@@H](OC(=O)c2cc(O)c(O)c(OC(=O)c3cc(O)c(O)c(O)c3)c2)[C@@H]1OC(=O)c1cc(O)c(O)c(OC(=O)c2cc(O)c(O)c(O)c2)c1)c1cc(O)c(O)c(OC(=O)c2cc(O)c(O)c(O)c2)c1	A-375	100 µM	60 h	viability	25.1%

Repeated from above (set 3):
target	remaining binding
Bone morphogenetic protein receptor type-2 (BMPR2, Homo sapiens, UniProt Q13873)	53%
Serine/threonine-protein kinase 32B (STK32B, Homo sapiens, UniProt Q9NY57)	100%
Mitogen-activated protein kinase kinase kinase 4 (MAP3K4, Homo sapiens, UniProt Q9Y6R4)	88%
Serine/threonine-protein kinase D1 (PRKD1, Homo sapiens, UniProt Q15139)	94%
